Assay results of several laboratories.
Numbers after ± are the reported error.

Substance	test	test system	setting	endpoint	result
CCN1C(=CC=CC=CC2=[N+](CCCCCC(=O)NCCCC[C@H](NC(=O)CN3CCN(CC(=O)O)CCN(CC(=O)O)CCN(CC(=O)O)CC3)C(=O)NCC(=O)NCC(=O)N[C@@H](Cc3ccc(O)cc3)C(=O)NCC(=O)N[C@H]3CSSC[C@@H]4NC(=O)CNC(=O)[C@H](C)NC(=O)[C@H](CC(C)C)NC(=O)[C@@H]5CSSC[C@@H](C(=O)NCC(N)=O)NC(=O)[C@H](Cc6ccccc6)NC(=O)CNC(=O)[C@H](CC(N)=O)NC(=O)[C@@H]6CCCN6C(=O)CNC(=O)[C@H](CSSC[C@H](NC(=O)[C@H](CO)NC(=O)[C@H]([C@@H](C)O)NC(=O)[C@@H]6CCCN6C(=O)[C@H](C)NC(=O)[C@H](Cc6c[nH]c7ccccc67)NC(=O)[C@H](CC(=O)O)NC(=O)CNC(=O)[C@H](CCCNC(=N)N)NC(=O)CNC(=O)[C@H](CCC(N)=O)NC(=O)[C@@H]6CCCN6C3=O)C(=O)N[C@@H](CO)C(=O)N[C@@H](CCC(N)=O)C(=O)N[C@@H](CC(=O)O)C(=O)N[C@@H](CO)C(=O)N[C@@H](CC(=O)O)C(=O)N5)NC(=O)[C@H](C(C)C)NC4=O)c3ccc4c(S(=O)(=O)[O-])cc(S(=O)(=O)O)cc4c3C2(C)C)C(C)(C)c2c1ccc1c(S(=O)(=O)O)cc(S(=O)(=O)O)cc21 (single isomer, unassigned) [copper-64 labelled]	–	nude mouse, U-87 MG xenograft, tumour	intravenous, 100 µCi, 0.5 nmol, 4 h	tissue uptake	5.64 ± 0.83 %ID/g
melittin	CD titration	POPC 100% POPG 0% vesicles	pH 7.0, 50 °C	free energy of partitioning	-5.9 kcal/mol
COc1cccc2c1C(=O)c1c(O)c3c(c(O)c1C2=O)C[C@@](O)(C(=O)CO)C[C@@H]3O[C@H]1C[C@H](NC(=O)[C@@H]2CCCN2C(=O)CNC(=O)[C@H](CC(C)C)NC(=O)[C@H](C)NC(=O)CP(=O)(O)O)[C@H](O)[C@H](C)O1	–	mouse, E0771 tumour-bearing, tumor	intravenous, 92 µmol/kg	terminal half-life	2.6 h
N=C(N)NCCC[C@@H]1NC(=O)[C@H](CCCCNC(=O)[C@H](CC(=O)O)NC(=O)[C@H](CC(=O)O)NC(=O)[C@H](CC(=O)O)NC(=O)CC[C@H](NC(=O)CCOCCOCCOCCOCCNC(=O)c2ccc(NN)nc2)C(=O)N[C@@H](CC(=O)O)C(=O)N[C@@H](CC(=O)O)C(=O)N[C@@H](CC(=O)O)C(=O)NCCCC[C@@H]2NC(=O)[C@@H](Cc3ccccc3)NC(=O)[C@H](CC(=O)O)NC(=O)CNC(=O)[C@H](CCCNC(=N)N)NC2=O)NC(=O)[C@@H](Cc2ccccc2)NC(=O)[C@H](CC(=O)O)NC(=O)CNC1=O [technetium-99m labelled]	γ-counting	female athymic nude mice, U-87 MG xenograft, liver	intravenous, 1 h	tissue uptake	3.61 ± 0.14 %ID/g
CCCCCCCCCCCCCCCC(=O)N[C@H](C(=O)N[C@H](C(=O)N[C@@H](CSSCCOP(=O)(O)CO[C@H](C)Cn1cnc2c(N)ncnc21)C(=O)N[C@@H](CCC(=O)O)C(=O)O)C(C)C)C(C)C	–	PBS	100 µM, 3 days, 37 °C, without dithiothreitol	stability	stable
COc1cccc2c1C(=O)c1c(O)c3c(c(O)c1C2=O)C[C@@](O)(C(=O)CO)C[C@@H]3O[C@H]1C[C@H](NC(=O)[C@H](CC(C)C)NC(=O)[C@H](C)NC(=O)[C@H](CC(C)C)NC(=O)CCNC(=O)CCC(=O)O)[C@H](O)[C@H](C)O1	–	mouse, E0771 tumour-bearing, plasma	intravenous, 92 µmol/kg	Cmax	243 µM
Cc1ccccc1NC(=O)Nc1ccc(CC(=O)N[C@@H](CCCCNC(=O)/C=C/c2cccnc2)C(=O)N[C@@H](CCCC(=O)O)C(=O)NC2(C(=O)NCCOCCOCCOCCOCC(=O)N[C@@H](CCCCNC(=S)Nc3ccc(C[C@H]4CN(CC(=O)O)CCN(CC(=O)O)CCN4CC(=O)O)cc3)C(N)=O)CCCCC2)cc1 [gallium-68 labelled]	radio-HPLC	human serum	2 h, 37 °C	68Ga release	< 5%
N=C(N)NCCC[C@@H]1NC(=O)[C@H](CCCCNC(=O)CNC(=O)CNC(=O)CNC(=O)CC[C@H](NC(=O)CCOCCOCCOCCOCCNC(=O)c2ccc(NN)nc2)C(=O)NCC(=O)NCC(=O)NCC(=O)NCCCC[C@@H]2NC(=O)[C@@H](Cc3ccccc3)NC(=O)[C@H](CC(=O)O)NC(=O)CNC(=O)[C@H](CCCNC(=N)N)NC2=O)NC(=O)[C@@H](Cc2ccccc2)NC(=O)[C@H](CC(=O)O)NC(=O)CNC1=O [technetium-99m labelled]	γ-counting	female athymic nude mice, U-87 MG xenograft, liver	intravenous, 2 h	tissue uptake	2.22 ± 0.3 %ID/g
CSCC[C@H](NC(=O)[C@H](CC(C)C)NC(=O)[C@H](Cc1cnc[nH]1)NC(=O)CNC(=O)[C@@H](NC(=O)[C@H](C)NC(=O)[C@H](Cc1c[nH]c2ccccc12)NC(=O)[C@H](CCC(N)=O)NC(=O)c1ccc(NC(=O)CN2CCN(CC(=O)O)CCN(CC(=O)O)CCN(CC(=O)O)CC2)cc1)C(C)C)C(N)=O	–	CF-1 mouse, urine and bladder	intravenous, 185 kBq, 1 h	excretion	68.4 ± 2.15%

Excerpt of the above:
Substance	test	test system	setting	endpoint	result
CCCCCCCCCCCCCCCC(=O)N[C@H](C(=O)N[C@H](C(=O)N[C@@H](CSSCCOP(=O)(O)CO[C@H](C)Cn1cnc2c(N)ncnc21)C(=O)N[C@@H](CCC(=O)O)C(=O)O)C(C)C)C(C)C	–	PBS	100 µM, 3 days, 37 °C, without dithiothreitol	stability	stable
